Assay results of several laboratories.
Protocols differ between the studies behind these lines. Values joined by “and” are separate records of one study, mostly repeats; a detail may differ.
Target: Serine/threonine-protein kinase D2 (PRKD2, Homo sapiens, UniProt Q9BZL6)

With CCN1CCN(Cc2ccc(C(=O)Nc3ccc(C)c(NCc4cnc5[nH]ccc5c4OC)c3)cc2C(F)(F)F)CC1 the remaining binding was 43% (binding, competition with immobilised ligand; 1 µM).
With Nc1ncc2c(n1)-c1c([nH]c3ccc(C4=CCOCC4)cc13)CCC2 the remaining binding was 82% (binding, competition with immobilised ligand; 1 µM).
The remaining activity of Nc1ncc(-c2cc(-c3cnn(CC(F)(F)F)c3)ncc2F)nc1C(=O)NC1CNCC(F)C1 (stereo not drawn) is reported as 65.6% (enzyme activity; 1 µM; baseline: DMSO control).
COCC12C(=O)NC3C4(C(OC)CC1O)C1CC5(O)C(OC)C(O)C(OC(C)=O)(C1C5OC(=O)c1ccccc1)C3(O)C(OC)C24 (stereo not drawn) gave a remaining activity of 104% (kinase activity, inhibitor, ProQinase kinase profiling; 25 µM; baseline: control).
With COc1c(OCCCN2CCOCC2)ccc2c1N=C(NC(=O)c1cnc(N)nc1)N1CCN=C21 the remaining activity was 101% (kinase activity, inhibitor; 1 µM; baseline: untreated control).
CNC1C[S+]2CC[S+]3CC[S+](C1)[Ru-4]321([N]=C=S)[n]2c3ccc(OC)cc3c3c4c(c5cc(F)c[n+]1c5c32)C(=O)NC4=O (stereo not drawn) gave a remaining binding of 100% (KinomeScan; 0.1 µM; baseline: untreated).
For CCn1cc(C(=O)O)c(=O)c2c(N)c(F)c(NC3CCCCC3)cc21, the inhibition was 2% (kinase activity; 0.1 µM, together with: ATP at Km).
CNC(=O)C1CCN(c2cc(C)c(F)cc2NC(=O)c2ccc(-c3cc(O)ccc3C)c(C)c2)CC1 has a remaining binding of 100% (binding, competition with immobilised ligand; 1 µM).
NC(=O)[C@@H](O)C[C@H]1CCc2sc3ncnc(O[C@H]4CC[C@H](N5CCOCC5)CC4)c3c21 gave an inhibition of 8% (enzyme activity, inhibitor; 10 µM).
For C=CC(=O)N1Cc2nc(-c3cc(-c4cc(Cl)cnc4Cl)c(F)cc3F)n(-c3ccncn3)c2C1, the inhibition was 4.3% (cell-free assay, inhibitor; 1 µM).
CS(=O)(=O)Nc1cccc(-c2csc3cnc(Nc4ccc(N5CCN(CCCCCOc6cccc7c6C(=O)N(C6CCC(=O)NC6=O)C7=O)CC5)cc4)nc23)c1 (stereo not drawn) gave an inhibition of -7.94% (probe labelling, inhibitor, KiNativ chemoproteomics; MOLT-4; 1 µM).
Cc1cccc(O[C@H]2CCC[C@@H](C(C)CNCc3ccncc3)C2)c1 (relative stereo) has an inhibition of -3% (enzyme activity, inhibitor; 10 µM).
N[C@H]1CC[C@H](Nc2nccc(-c3cccnc3Oc3ccc(NC(=O)NC4CC4)c4ccccc34)n2)CC1 — result for “log2 LFQ intensity”: 21.6 and 22.7 and 22.9 and 22.3 (kinobead competition pulldown; HEK293/HCT116 lysate mixture; 10 µM, 1 h, 4 °C; lower = stronger competition).
Cc1nc2c(F)cc(-c3nc(Nc4ccc(CNC(=O)CCCCCCC(=O)NO)cc4)ncc3F)cc2n1C(C)C gave an inhibition of 87% (enzyme activity, inhibitor; 1 µM).
The inhibition of C=CC(=O)Nc1cccc(-c2cnc3[nH]cc(C(=O)NC(C)(C)C)c3n2)c1 is reported as 5% (enzyme activity, inhibitor; 0.1 µM).
COc1cc(Nc2nc(C)cc(-c3cnn4nc(OC)ccc34)n2)cc(C(F)(F)F)c1 gave a remaining activity of 100% (inhibitor; 1 µM; baseline: control).
The inhibition of COc1ccc(O)cc1-c1c[nH]c2ncc(-c3cncc(C(=O)N(C)C)c3)cc12 is reported as 4.62% (binding, competition with immobilised ligand; 0.2 µM).
CC(C)=CC1OC(C)(C)C2C=C3C(=O)C(Cl)=CC(O)C3C3C(O)C4OC4C(=O)C132 (stereo not drawn) gave a remaining binding of 92% (cell-free assay, competition with immobilised ligand; 10 µM).
